Assay results pooled from the literature.
“And” joins repeats or separate records; there may be more than shown. ± gives the spread as reported.
Organism: SARS-CoV-2

SMILES | assay | test system | conditions | EC50
N#Cc1ccccc1C[C@@H](N)C(=O)N[C@H](Cc1ccc(Cl)cc1Cl)C(=O)N[C@H](CC(=O)NCCNc1nnc(N)[nH]1)Cc1ccc(F)cc1 | viral replication | USA-WA1/2020 | 24 h | > 10 µM
CN(C)c1ccc(N(Cc2cc(Cl)cs2)C(=O)Cc2cncc3cccc(O)c23)cc1 | viral replication, nucleocapsid staining | Calu-3, Omicron BA.5 | – | 0.069 µM
Oc1c(Br)cc(Br)c2cccnc12 | viral replication, immunofluorescence | Vero E6, wild type | 24 h | 4.59 µM
O=C(CNc1ccc(I)cc1)N1CCCC2=CC3CC(CN4CCCCC34)C21 (centres unmarked) | pseudovirus entry | – | pseudovirus | 9.4 µM
N#Cc1ccccc1C[C@@H](N)C(=O)N[C@H](Cc1ccc(Cl)cc1Cl)C(=O)NCCc1ccc(F)cc1 | viral replication | USA-WA1/2020 | 24 h | 2.9 µM
CC(=O)OC1(C)CC(C=C(C)CCC=C(C)C)OC2(C=C(CO)C3CC(=O)C(C)=CC3O2)C1 (centres unmarked) | viral replication | Calu-3, mNeonGreen reporter | – | 0.106 µM
Clc1ccc(CN2CCCC3=CC4CC(CN5CCCCC45)C32)c(Cl)c1 (centres unmarked) | viral replication | – | – | > 3750 µM
Cc1ccc(N2CC(N3CCC(C)(O)CC3)C2)cc1C(=O)NC1(c2ccc3c4c(cccc24)CC3)CC1 | viral replication | Vero C1008, Omicron BA.5 | – | 0.409 µM
CCOC(=O)c1c(CSc2ccccc2)n(C)c2cc(-c3cccnc3)c(O)c(CN3CCN(CCOCCO)CC3)c12 | – | Vero C1008, MEX-BC2/2020 | 96 h | 4.3 µM
O=c1cc(-c2ccc(O)cc2)oc2c([C@@H]3OC[C@H](O)[C@H](O)[C@H]3O)c(O)c([C@@H]3O[C@H](CO)[C@@H](O)[C@H](O)[C@H]3O)c(O)c12 | viral replication, qRT-PCR | Vero E6 cells, WIV04 | 24 h | 11.8 ± 3.23 µM
CC(C)(C)[C@H](NC(=O)C(F)(F)F)C(=O)N1C[C@H]2[C@@H]([C@H]1C(=O)N[C@H](C#N)C[C@@H]1CCNC1=O)C2(C)C | viral replication, nucleocapsid staining | Caco-2, Omicron BA.5 | – | 0.4 µM
CCOC(=O)[C@H](C(C)C)n1[se]c2ccccc2c1=O | viral replication, RT-qPCR | Vero | 48 h | 24 µM
CC(C)CC(C(=O)N1CC2(CC1C#N)C(=O)Nc1ccccc12)N(C)C(=O)c1cc2c(F)cc(F)c(F)c2[nH]1 (centres unmarked) | viral replication | Vero E6 | – | 0.015 µM
COC(=O)c1cc2c(=O)n3ccccc3nc2n1Cc1ccccc1 | viral replication, qPCR | Vero E6 | – | 22.1 ± 1.01 µM
CCC(C)Nc1[nH]c2c(C(F)(F)F)cc(Cl)cc2c(=O)c1C(=O)C(C)C (centres unmarked) | viral replication, high content screening | Vero | – | 14.2 µM
Cc1ccc(N)cc1CN(C)[C@H](C)c1cccc2ccccc12 | viral replication | Vero E6, USA-WA1/2020 | 24 h | 25.2 µM
C#CCCC1(CCCNC(=O)CCOCCOc2ccc(-c3cnc4c(C#Cc5cccnc5)snc4c3)cc2)N=N1 | viral replication | Calu-3, USA-WA1/2020 | – | 0.23 µM
N#Cc1ccccc1C[C@@H](N)C(=O)N[C@H](Cc1ccc(Cl)cc1Cl)C(=O)N[C@H](CC(=O)NCCCNc1nnc(N)[nH]1)Cc1ccc(F)cc1 | viral replication | USA-WA1/2020 | 24 h | > 10 µM
CO/C1=C\C(C)=C\[C@@H](C)[C@@H](O)[C@@H](C)C/C(C)=C/C=C/[C@H](OC)[C@@H]([C@@H](C)[C@@H](O)[C@H](C)C(=O)/C=C/[C@H](C)[C@H](O)C(C)C)OC1=O | viral replication, item: nucleocapsid protein | Calu-3, Delta B.1.617.2 | – | 0.002 µM
CC[C@@H](C)[C@H](NC(=O)c1ccccc1[Se][Se]c1ccccc1C(=O)N[C@H](C(=O)OC)[C@H](C)CC)C(=O)OC | viral replication, RT-qPCR | Vero | 48 h | 11 µM
CN(C)CCCCNC(=O)C[C@H](Cc1ccc(F)cc1)NC(=O)[C@@H](Cc1ccc(Cl)cc1Cl)NC(=O)CCc1ccccc1C#N | viral replication | USA-WA1/2020 | 24 h | 2.3 µM
Cc1ccc(NCC(=O)N2CCCC3=CC4CC(CN5CCCCC45)C32)cc1 (centres unmarked) | pseudovirus entry | – | pseudovirus | > 267 µM
Cc1ccc(N)cc1C(=O)N[C@H](C)c1cccc2ccccc12 | viral replication | Caco-2, icSARS-CoV-2-nLuc reporter | – | > 20 µM
CC1(C)CCC(CN2CCN(c3ccc(C(=O)NS(=O)(=O)c4ccc(NCC5CCOCC5)c([N+](=O)[O-])c4)c(Oc4cnc5[nH]ccc5c4)c3)CC2)=C(c2ccc(Cl)cc2)C1 | viral replication, plaque | Vero C1008 | 16 h | 1.18 ± 0.12 µM
C#CCNC(=O)C[C@H](Cc1ccc(F)cc1)NC(=O)[C@@H](Cc1ccc(Cl)cc1Cl)NC(=O)[C@H](N)Cc1ccccc1C#N | viral replication | USA-WA1/2020 | 24 h | 0.9 µM
O=C(c1cccc(-n2cccc2)c1)N1CCCN(S(=O)(=O)c2ccc(F)cc2)CC1 | viral replication | – | – | > 100 µM
C[C@@H]1O[C@@H](n2c3ccccc3c3c4c(c5c6ccccc6[nH]c5c32)CNC4=O)C[C@@H](N)[C@H]1O | viral replication | mNeonGreen reporter | – | 0.28 µM

SMILES | assay | test system | conditions | EC50
Cc1ccc(CNC(=O)c2cccc(Cl)c2)cc1C(=O)N[C@H](C)c1cccc2ccccc12 | viral replication | Vero C1008, WK-521 ancestral Wuhan | – | > 100 µM
Cc1ccc(OCCN(C)C)cc1C(=O)N[C@H](C)c1cc(-c2cnn(CF)c2)cc(-c2ccn(C)n2)c1 | viral replication | Caco-2, icSARS-CoV-2-nLuc reporter | – | 0.86 µM
CC(C)C(=O)OC[C@H]1O[C@@](C#N)(n2ccc(N)nc2=O)[C@H](O)[C@@H]1O | viral replication, qRT-PCR of viral RNA | Calu-3, Washington | – | 4.5 ± 0.3 µM
Cc1ccc(OCCN(C)C)cc1C(=O)N[C@H](C)c1cc(-c2cnn(C)c2)cc(-c2cnn(CC(F)(F)F)c2)c1 | viral replication | Caco-2, icSARS-CoV-2-nLuc reporter | – | 0.5 µM
Cc1ccc(CNC(=O)c2ccc(Br)cc2Cl)cc1C(=O)N[C@H](C)c1cccc2ccccc12 | viral replication | Vero C1008, WK-521 ancestral Wuhan | – | > 100 µM
O=C(c1ccc(Cl)cc1)N1CCCC2=CC3CC(CN4CCCCC34)C21 (centres unmarked) | pseudovirus entry | – | pseudovirus | 236 µM
Cc1ccc(CNC(=O)c2ccc(I)cc2)cc1C(=O)N[C@H](C)c1cccc2ccccc12 | viral replication | Vero C1008, WK-521 ancestral Wuhan | – | 32 ± 3.1 µM
Clc1ccc(CN2CCCC3=CC4CC(CN5CCCCC45)C32)cc1Cl (centres unmarked) | pseudovirus entry | Huh-7 | – | 28.2 µM
C#CCCCNCCNc1ccnc2cc(Cl)ccc12 | viral replication | Vero 76, MUC-IMB-1/2020 | 30 h | 2.9 ± 2.5 µM
NS(=O)(=O)c1cccc2c1C(=O)c1cccc(O)c1C2=O | virus-induced cytopathic effect | Vero E6, USA-WA1/2020 | 72 h | > 20 µM
Cc1ccc(CNC(=O)c2cc(F)c(Br)cc2F)cc1C(=O)N[C@H](C)c1cccc2ccccc12 | viral replication | Vero C1008, WK-521 ancestral Wuhan | – | 24.3 ± 5.1 µM
COc1ccccc1-c1nc2sc3c(c2c(=O)o1)CCC3 | viral replication | – | – | > 100 µM
C[C@H](c1cccc2ccccc12)N(C)Cc1ccc2[nH]ncc2c1 | viral replication | Caco-2-hACE2, USA-WA1/2020 | 24 h | ≤ 10 µM
CC(C)C[C@@H]1NC(=O)[C@H](C(C)C)NC(=O)[C@H](C)NC(=O)[C@H](Cc2ccc(O)cc2)NC(=O)[C@H](CCC(N)=O)NC(=O)[C@H](CC(C)C)NC(=O)[C@@H](Cc2ccc(O)cc2)NC(=O)CSC[C@@H](C(N)=O)NC(=O)[C@H](CCC(=O)O)NC(=O)[C@H](CCCNC(=N)N)NC(=O)[C@H](CCCNC(=N)N)NC(=O)[C@H](CCCCN)NC(=O)[C@H](Cc2c[nH]cn2)NC(=O)[C@H](CCCNC(=N)N)NC1=O | viral replication | – | – | > 50 µM
COc1cccc2[nH]c(C(=O)N[C@@H](CC(C)C)C(=O)N[C@@H](C[C@@H]3CCNC3=O)C(=O)c3nc4ccccc4s3)cc12 | viral replication, RT-qPCR | VeroE6, WK-521 | – | 2.2 ± 0.53 µM
O=C(c1cncc(Br)c1)N1CCN(C(c2ccccc2)c2ccccc2)CC1 | viral replication | USA-WA1/2020 | – | 0.81 ± 0.18 µM
O=C(Nc1ccc([N+](=O)[O-])c(Cl)c1)c1cc(Cl)ccc1O | viral replication | – | 48 h | 1.75 µM
N#Cc1ccccc1CC(N)C(=O)NC(Cc1ccc(Cl)cc1Cl)C(=O)NC(CC(=O)NCCc1ccccc1)Cc1ccc(F)cc1 (centres unmarked) | viral replication | USA-WA1/2020 | 24 h | 0.3 µM
Cn1cc(C(=O)Nc2ccccn2)c2ccccc21 | viral replication | – | – | > 100 µM
[2H]C1([2H])CC[C@@H](C[C@@H](C#N)NC(=O)[C@@H]2[C@@H]3[C@H](CN2C(=O)[C@@H](NC(=O)C(F)F)C(C)(C)C)C3(C)C)C(=O)N1 | viral replication | Canada/VIDO 01/2020 | together with: efflux inhibitor CP-100356 | 0.04 µM
O=C(CN1CCCC2=CC3CC(CN4CCCCC34)C21)Nc1cc(Br)ccc1Br (centres unmarked) | pseudovirus entry | – | pseudovirus | 55.3 µM
C[C@](C(=O)NC1CCOCC1)(c1cncnc1)N(C(=O)[C@H](F)Cl)c1ccc(OC(F)(F)Cl)cc1 | – | Vero C1008, XBB.1 | – | 0.05 µM and 0.03 µM
Cc1ccc(CNC(=O)c2ccc(Br)cc2F)cc1C(=O)N[C@H](C)c1cccc2ccccc12 | viral replication | Vero C1008, WK-521 ancestral Wuhan | – | 23.9 ± 5.8 µM
Cc1ccc(N2CCN(C)CC2)cc1C(=O)NC1(c2ccc3c4c(cccc24)CC3)CC1 | viral replication | Vero C1008, Omicron BA.5 | – | 0.86 µM
CN(C)CCCCNC(=O)C[C@H](Cc1ccc(F)cc1)NC(=O)[C@@H](Cc1ccc(Cl)cc1Cl)NC(=O)[C@@H](N)Cc1ccccc1C#N | viral replication | USA-WA1/2020 | 24 h | > 10 µM
CC(=O)Oc1ccc(CCCCCCCCC(=O)c2c(OC(C)=O)cccc2OC(C)=O)cc1OC(C)=O | MTT | Vero E6/TMPRSS2, WK-521 ancestral | – | 1.3 µM

Repeated from above:
SMILES | assay | test system | conditions | EC50
NS(=O)(=O)c1cccc2c1C(=O)c1cccc(O)c1C2=O | virus-induced cytopathic effect | Vero E6, USA-WA1/2020 | 72 h | > 20 µM
Cc1ccc(CNC(=O)c2cc(F)c(Br)cc2F)cc1C(=O)N[C@H](C)c1cccc2ccccc12 | viral replication | Vero C1008, WK-521 ancestral Wuhan | – | 24.3 ± 5.1 µM
COc1ccccc1-c1nc2sc3c(c2c(=O)o1)CCC3 | viral replication | – | – | > 100 µM
C[C@H](c1cccc2ccccc12)N(C)Cc1ccc2[nH]ncc2c1 | viral replication | Caco-2-hACE2, USA-WA1/2020 | 24 h | ≤ 10 µM
CC(C)C[C@@H]1NC(=O)[C@H](C(C)C)NC(=O)[C@H](C)NC(=O)[C@H](Cc2ccc(O)cc2)NC(=O)[C@H](CCC(N)=O)NC(=O)[C@H](CC(C)C)NC(=O)[C@@H](Cc2ccc(O)cc2)NC(=O)CSC[C@@H](C(N)=O)NC(=O)[C@H](CCC(=O)O)NC(=O)[C@H](CCCNC(=N)N)NC(=O)[C@H](CCCNC(=N)N)NC(=O)[C@H](CCCCN)NC(=O)[C@H](Cc2c[nH]cn2)NC(=O)[C@H](CCCNC(=N)N)NC1=O | viral replication | – | – | > 50 µM
COc1cccc2[nH]c(C(=O)N[C@@H](CC(C)C)C(=O)N[C@@H](C[C@@H]3CCNC3=O)C(=O)c3nc4ccccc4s3)cc12 | viral replication, RT-qPCR | VeroE6, WK-521 | – | 2.2 ± 0.53 µM
O=C(c1cncc(Br)c1)N1CCN(C(c2ccccc2)c2ccccc2)CC1 | viral replication | USA-WA1/2020 | – | 0.81 ± 0.18 µM
O=C(Nc1ccc([N+](=O)[O-])c(Cl)c1)c1cc(Cl)ccc1O | viral replication | – | 48 h | 1.75 µM
N#Cc1ccccc1CC(N)C(=O)NC(Cc1ccc(Cl)cc1Cl)C(=O)NC(CC(=O)NCCc1ccccc1)Cc1ccc(F)cc1 (centres unmarked) | viral replication | USA-WA1/2020 | 24 h | 0.3 µM
